# Measurements pooled from the literature.
# Lines come from different studies, so protocols differ. “And” joins repeats or separate records; there may be more than shown. ± gives the spread as reported.
SMILES,assay,system,conditions,how to read,quantity,value
CC(C)NCC(O)c1ccc(O)c(O)c1 (stereo not drawn),,"ventricular cardiomyocytes, C57BL/6 mouse","dose not given, 0.592 s",,sarcomere length,1.65 µm
CSCCNc1nc(SCCC(F)(F)F)nc2c1ncn2[C@@H]1O[C@H](COP(=O)(O)OP(=O)(O)C(Cl)(Cl)P(=O)(O)O)[C@@H](O)[C@H]1O,"platelet aggregation, light transmission aggregometry","human patients, platelet-rich plasma","dose not given, 3 h, added: TRAP 15 µM",,patients with IPA above 80%,0%
Cc1cc(C)c(CNC(=O)c2cc(Cl)c3c(c2C)O[C@@](C)([C@H]2CC[C@H](N(C)C)CC2)O3)c(=O)[nH]1,,"relapsed/refractory NHL patients, total incl. ATLL and CTCL","oral, dose not given",,best overall response ND,5%
N#Cc1ccc2c(-c3ccncc3)c(-c3ccc(F)cc3)nn2c1,"kinase binding, competitor, MIB/MS competition, refers to: KIN3",Candida albicans cell lysate,1 µM,reference: DMSO,log2 fold change,0.461
CC(c1cc2ccccc2s1)N(O)C(N)=O (stereo not drawn),refers to: PGD2,human whole blood,"3 µM, added: Escherichia coli",,amount,134 ± 90 pg/mL blood
COc1ccc(-c2cncc(N[C@@H](C)c3cccc(NC(=O)c4cncc(C)c4)c3)n2)cc1OC,refers to: rno-miR-211-5p,"rat SU5416/hypoxia model, lung","dose not given, unit not given",reference: SU5416/hypoxia vehicle,delta delta Ct,0.522
COc1cc(Nc2ncc3c(n2)-c2ccc(Cl)cc2C(c2c(F)cccc2OC)=NC3)ccc1C(=O)O,,"mouse, NB-EBc1 neuroblastoma xenograft","oral, 2.6 mg/kg, day 7",reference: vehicle,relative tumour volume T/C,2.76
CC(C)(C)c1sc2ncnc(Oc3c(F)cccc3OC(F)(F)F)c2c1-c1ccc(Cl)cc1,heat hyperalgesia,"humanized MrgprX1 mice, CCI","oral, 4.5 mg/kg",,antihyperalgesia,~28%
CC[C@H](CC[C@@H](C)[C@H]1CC[C@H]2[C@@H]3CC=C4C[C@@H](O[C@@H]5O[C@H](CO)[C@@H](O)[C@H](O)[C@H]5O)CC[C@]4(C)[C@H]3CC[C@]12C)C(C)C,Oil Red O,"3T3-L1, mouse","5 µM, day 8",reference: vehicle,lipid accumulation,47.6 ± 3.09%
OC(CCN1CCCCC1)(c1ccccc1)C1CC2C=CC1C2 (stereo not drawn),resting-state EEG,healthy elderly humans,"oral, 4 mg, eyes open, LS mean",reference: baseline,"change, EEG Delta power, in Fz-Cz",37%
CN[C@@H]1COc2c(S(=O)(=O)NC(=O)Nc3c4c(cc5c3CCC5)CCC4)cnn2C1,refers to: IL-1β,"human participants, whole blood ex vivo","150 mg single dose, 24 h, added: LPS/ATP",reference: baseline,inhibition,70.2%
CN(C(=O)n1cnc(-c2ccc[n+]([O-])c2)c1)C1CCCCC1,refers to: OEA,"human, plasma",2.5 mg single dose,,AUC(0-t),575 ng·h/mL
O=C(O)CNC(=O)Cc1ccccc1,,"ventricular cardiomyocytes, C57BL/6 mouse","dose not given, 0.032 s",,sarcomere length,1.72 µm
Cc1c(C)c2c(c(C)c1O)CCC(C)(COc1ccc(CC3SC(=O)NC3=O)cc1)O2 (stereo not drawn),"RNA-seq pathway analysis, refers to: inflammatory pathway genes",liver spheroids,"concentration not given, 24 h and 10 d",,gene expression,decreased
C[C@H](Oc1ccc(Br)cc1-c1ccon1)C(=O)O,muscle velocity recovery cycles,"human, tibialis anterior muscle","1200 mg single dose, 3.5 h post-dose, frequency ramp, first response at 30 Hz",reference: placebo,latency change,-2.15%
c1ccc(-c2n[nH]cc2-c2ccnc3ccccc23)nc1,"kinase binding, competitor, MIB/MS competition, refers to: NIK1",Candida albicans cell lysate,10 µM,reference: DMSO,log2 fold change,1.02
C=CCn1c(=O)c2cnc(Nc3ccc(N4CCN(C)CC4)cc3)nc2n1-c1ccc2c(n1)[C@@](O)(CC)CC2,,"HCC1428 xenograft, BALB/c nude mice","oral, 80 mg/kg once daily x 14, day 27",,tumour volume difference,16.5 ± 5.9 mm3
Cc1cc(C)c(CNC(=O)c2cc(Cl)c3c(c2C)O[C@@](C)([C@H]2CC[C@H](N(C)C)CC2)O3)c(=O)[nH]1,IWG criteria,relapsed/refractory PTCL-NOS patients,dose not given,,best response not evaluable,0%
N#Cc1ccc2c(c1)[C@H]1CCCN(C(=O)c3ccc4[nH]cnc4c3)[C@H]1C2,,"human, plasma","40 mg, day 15, 360 h",reference: placebo and baseline,change in 1.5-AHG,1.7%
COc1ccc(F)cc1C(=O)NCc1ccc(-c2nn([C@@H](C)C(F)(F)F)c(N)c2C(N)=O)cc1,,relapsed/refractory CLL patients,"dose not given, monotherapy",,best overall response NE,4%
COc1ccc2c(c1)CN(Cc1ccc(C(=O)O)cc1)CCS2,,exercised mdx mice,"50 mg/kg, 2 weeks",,forelimb grip strength,0.159 ± 0.008 kgf
N=C(N)NCCC[C@H](NC(=O)[C@H](CCCNC(=N)N)NC(=O)[C@H](CCCCN)NC(=O)[C@H](CCC(N)=O)NC(=O)[C@H](CCCCN)NC(=O)[C@H](Cc1ccc(O)cc1)NC(=O)[C@@H](N)CCCCN)C(=O)N[C@@H](CO)C(=O)N[C@@H](Cc1ccc(O)cc1)C(=O)N[C@@H](CCCCN)C(=O)O,,dentin hypersensitivity patients aged 30-40 years,"5 µg/tooth, day 36, unit not given",reference: baseline,median VAS change,-52
C[C@@H](NC(=O)N1C(=O)[C@H](Cc2ccnc(N)c2)[C@H]1C(=O)O)C1CCCCC1,,human,"iv infusion, 2.25 mg/kg/h, 24 h",reference: baseline,time to ACT Emax,24 h
CCCCC1C(=O)N(c2ccccc2)N(c2ccccc2)C1=O,carrageenan paw oedema,albino rat,"oral, 25 mg/kg, 3 h",,inhibition,26.5%
N#Cc1ccc2c(c1)[C@H]1CCCN(C(=O)c3ccc4[nH]cnc4c3)[C@H]1C2,refers to: Triglycerides,human,"20 mg once daily, day 28, adjusted mean",,change from baseline,-6.2 mg/dL
CC(C)[C@H](C(=O)Nc1ccc(C(=O)NO)cc1)c1ccccc1,volumetric MRI,"human, right vagal schwannoma","dose not given, day 995",,tumour growth rate,12.3 %/year
CC(C)[C@H](NC(=O)[C@H](Cc1ccc(O)cc1)NC(=O)[C@H](Cc1ccc(O)cc1)NC(=O)[C@@H]1CCCN1C(=O)[C@H](CCC(=O)O)NC(=O)[C@H](CCC(=O)O)NC(=O)[C@H](Cc1c[nH]c2ccccc12)NC(=O)[C@@H]1CCCN1C(=O)[C@@H](NC(=O)[C@H](CCC(N)=O)NC(=O)c1ccc2c(c1)C(=O)OC21c2ccc(O)cc2Oc2cc(O)ccc21)C(C)C)C(=O)N[C@H](C(=O)N[C@@H](CCCCN)C(=O)N[C@@H](CCCCN)C(=O)N[C@@H](CO)C(=O)N[C@@H](CO)C(=O)NCC(=O)NCC(N)=O)C(C)C,added benefit of NERVE,"human head and neck surgery, nerves","500 mg, no added benefit",reference: white light visualisation,share of responses,35.7%
Cc1ccc([C@@H]2O[C@H](CO)[C@@H](O)[C@H](O)[C@H]2O)cc1Cc1ccc(-c2ccc(F)cc2)s1,,Japanese type 2 diabetes patients,"200 mg, day 16",reference: day 0,"change, mean 24 h, plasma glucose",-57 mg/dL
CCOc1c([C@H](C)n2nc(C)c3c(N)ncnc32)cc(Cl)c(F)c1[C@@H]1CNC(=O)C1,"Olink proximity extension, refers to: PPY","human FL or MZL patients, plasma","dose not given, week 8 day 1, once-daily dosing",reference: baseline,percent change in level,181%
C[C@H]1C[C@H]2CSC(N)=N[C@@]2(c2nc(NC(=O)c3ccc(OC(F)F)cn3)cs2)CO1,refers to: Aβ1-40,"healthy adults, plasma","540 mg single dose, 24 h post-dose",reference: placebo,percent change from baseline,-89.4%
C[C@H]1O[C@@H](O[C@H]2CC[C@@]3(C)[C@@H](CC[C@]4(C)[C@@H]3C=C[C@]35OC[C@@]6(CCC(C)(C)C[C@H]63)[C@@H](O)C[C@]54C)[C@]2(C)CO)[C@H](O)[C@@H](O[C@@H]2O[C@H](CO)[C@@H](O)[C@H](O)[C@H]2O)[C@H]1O,"Western blot, refers to: Deptor","chronic-plus-binge ethanol-fed mice, liver","dose not given, dose level -H, unit not given",reference: β-actin,protein level,1.77 and 1.07 and 1.19
C[C@@H](O)CCOC(=O)C[C@@H](C)O,refers to: Orn,"human, plasma","60 min, log2-transformed values",,metabolite level,6.28 ± 0.31 µmol/L
NC(=O)c1cnc2[nH]ccc2c1N[C@@H]1[C@@H]2CC3C[C@H]1C[C@@](O)(C3)C2,flow cytometry,"Japanese healthy men, blood","oral, 30 mg twice daily, 72 h after day 7 dose",reference: baseline,CD8+ effector T-cell change,0.33%
N#Cc1ccn2c(-c3ccncc3)c(-c3ccc(F)cc3)nc2c1,"kinase binding, competitor, MIB/MS competition, refers to: CKA2",Candida albicans cell lysate,1 µM,reference: DMSO,log2 fold change,0.404
O=C1CCC(N2Cc3cc(CNC(=O)C(F)(F)c4ccc(Cl)cc4)ccc3C2=O)C(=O)N1 (stereo not drawn),deuterium-hydrogen exchange,aqueous phosphate buffer,"pH 7.4, 37 °C",,exchange rate constant,-0.0233 h⁻¹
CC1(C)CCC(c2ccc(Cl)cc2)=C(CN2CCN(c3ccc(C(=O)NS(=O)(=O)c4ccc(N[C@H](CCN5CCOCC5)CSc5ccccc5)c(S(=O)(=O)C(F)(F)F)c4)cc3)CC2)C1,"cell kill, PI exclusion flow cytometry","unclassified leukaemia cells, human",24 h,,EC50,16 nM
CCc1c(C)nc(-c2ccc(Cl)s2)nc1Nc1ccc(CC(=O)O)cc1,,"C57BL/6J mouse, high-fat diet MASH model, white adipose tissue","intraperitoneal, 0.3 mg/kg daily, 60% fat diet for 12 weeks, dosed final four weeks",reference: untreated,adipocyte area,no effect
COc1cc(O)c(CC=C(C)C)c(O)c1C(=O)/C=C/c1ccc(O)cc1,glucose tolerance test,"male Tac:SW conventional mice, high-fat diet","in diet, 60 mg/kg/day, 10 weeks, 60 min after glucose load",,blood glucose,298 mg/dL
CCN1CCN(Cc2ccc(Nc3ncc(F)c(-c4cc(F)c5nc6n(c5c4)[C@H](C)CCC6)n3)nc2)CC1,,human advanced solid tumours,"400 mg, phase Ia monotherapy RECIST 1.1",,not evaluable response,0%
O=C1Nc2cc3[nH]nc(-c4ccncc4)c3cc2CN1Cc1ccccc1,RECIST v1.1,"human, relapsed or refractory advanced solid tumours","intravenous, 3.6 mg/kg, pooled schedules",,"stable disease, best response",0%
C=Cc1c(C)c2cc3nc(c(CC(=O)O)c4[nH]c(cc5nc(cc1[nH]2)C(C)=C5CC)c(C)c4C(=O)O)[C@@H](CCC(=O)O)[C@@H]3C,flow cytometry,"mouse, 4T1 tumour-bearing","dose not given, 1 h",,Treg cells,5.48% and 5.39% and 5.13%
CN(C)C(=O)c1cc2cnc(Nc3ccc(N4CCNCC4)cn3)nc2n1C1CCCC1,"RNA-seq GSEA, refers to: HALLMARK_PROTEIN_SECRETION gene set",MB002 tumour,concentration not given,"reference: vehicle, direction not given",normalized enrichment score,-1.1
NCC(=O)Nc1cncc(-c2nn3c(=O)cc(N4CCNCC4)nc3s2)c1,"ADP-induced platelet aggregation, light transmission aggregometry","human, stable CAD on aspirin, ex vivo platelets","subcutaneous, 0.04 mg/kg, 60 min post-dose, median value, added: ADP 20 µM",,inhibition,28.6%
CO[C@H]1CC[C@H](N2C(=O)CNc3ncc(-c4ccc(C(C)(C)O)nc4)nc32)CC1,flow cytometry,"stimulated B cells, human, blood","45 mg single dose, 3 h, mean",reference: baseline,pS6RP change from baseline,-74.8%
Cc1cn(-c2ccc3n(c2=O)CCN([C@@H](C)[C@@H]2CC[C@H](c4cc(F)c(Cl)cc4C(F)(F)F)O2)C3=O)cn1,refers to: amyloid beta 40,"human, non-elderly, cerebrospinal fluid","100 mg once daily, 14 days, sampled 336 h",reference: placebo,change from baseline,-26.8%

# Excerpt of the above:
SMILES,assay,system,conditions,how to read,quantity,value
O=C1CCC(N2Cc3cc(CNC(=O)C(F)(F)c4ccc(Cl)cc4)ccc3C2=O)C(=O)N1 (stereo not drawn),deuterium-hydrogen exchange,aqueous phosphate buffer,"pH 7.4, 37 °C",,exchange rate constant,-0.0233 h⁻¹
C[C@@H](O)CCOC(=O)C[C@@H](C)O,refers to: Orn,"human, plasma","60 min, log2-transformed values",,metabolite level,6.28 ± 0.31 µmol/L
Cc1ccc([C@@H]2O[C@H](CO)[C@@H](O)[C@H](O)[C@H]2O)cc1Cc1ccc(-c2ccc(F)cc2)s1,,Japanese type 2 diabetes patients,"200 mg, day 16",reference: day 0,"change, mean 24 h, plasma glucose",-57 mg/dL
c1ccc(-c2n[nH]cc2-c2ccnc3ccccc23)nc1,"kinase binding, competitor, MIB/MS competition, refers to: NIK1",Candida albicans cell lysate,10 µM,reference: DMSO,log2 fold change,1.02
N#Cc1ccc2c(-c3ccncc3)c(-c3ccc(F)cc3)nn2c1,"kinase binding, competitor, MIB/MS competition, refers to: KIN3",Candida albicans cell lysate,1 µM,reference: DMSO,log2 fold change,0.461
